Assay results collected from several papers.
Compare with care: the assays were run in different laboratories. Several values in a cell are separate wells, animals, samples, runs or records. ± gives the spread as reported.
Chain of UniProt O43614 (whole entry, unmodified, looked up): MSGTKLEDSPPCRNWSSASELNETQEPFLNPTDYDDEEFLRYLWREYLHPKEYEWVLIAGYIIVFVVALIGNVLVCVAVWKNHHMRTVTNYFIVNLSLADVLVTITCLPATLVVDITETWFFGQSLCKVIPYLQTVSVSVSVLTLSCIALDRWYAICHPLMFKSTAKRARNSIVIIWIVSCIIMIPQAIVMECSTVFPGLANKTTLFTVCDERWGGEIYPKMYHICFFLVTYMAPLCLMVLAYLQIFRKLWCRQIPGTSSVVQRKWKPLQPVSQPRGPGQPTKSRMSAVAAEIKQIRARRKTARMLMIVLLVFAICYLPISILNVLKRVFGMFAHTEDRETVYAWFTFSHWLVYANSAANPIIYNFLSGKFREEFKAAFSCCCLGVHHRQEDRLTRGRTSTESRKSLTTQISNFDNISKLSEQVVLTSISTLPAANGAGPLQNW
Chain of UniProt O88703 (whole entry, unmodified, looked up): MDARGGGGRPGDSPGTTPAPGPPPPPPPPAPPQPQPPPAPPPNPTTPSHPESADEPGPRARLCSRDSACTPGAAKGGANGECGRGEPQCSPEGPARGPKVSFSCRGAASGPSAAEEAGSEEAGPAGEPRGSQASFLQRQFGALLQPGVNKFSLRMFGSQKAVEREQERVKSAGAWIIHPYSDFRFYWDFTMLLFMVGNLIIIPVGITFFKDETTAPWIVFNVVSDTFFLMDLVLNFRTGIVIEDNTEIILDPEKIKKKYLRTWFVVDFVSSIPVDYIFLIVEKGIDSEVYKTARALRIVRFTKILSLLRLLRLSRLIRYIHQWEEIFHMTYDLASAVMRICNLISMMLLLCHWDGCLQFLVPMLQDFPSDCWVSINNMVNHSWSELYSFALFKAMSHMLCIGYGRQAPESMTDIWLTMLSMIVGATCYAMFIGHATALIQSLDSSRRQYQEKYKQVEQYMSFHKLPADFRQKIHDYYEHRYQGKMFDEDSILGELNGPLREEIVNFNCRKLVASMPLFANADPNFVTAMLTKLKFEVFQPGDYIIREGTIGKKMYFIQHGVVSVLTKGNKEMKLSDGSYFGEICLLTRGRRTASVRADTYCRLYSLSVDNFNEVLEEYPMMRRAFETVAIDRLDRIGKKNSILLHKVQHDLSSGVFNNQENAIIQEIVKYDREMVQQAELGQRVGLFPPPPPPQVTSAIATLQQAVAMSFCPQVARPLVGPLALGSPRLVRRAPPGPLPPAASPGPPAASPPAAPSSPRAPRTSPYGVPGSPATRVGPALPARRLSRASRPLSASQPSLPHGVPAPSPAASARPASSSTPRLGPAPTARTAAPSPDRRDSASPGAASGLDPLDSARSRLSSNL
Chain of UniProt P08253 (whole entry, looked up): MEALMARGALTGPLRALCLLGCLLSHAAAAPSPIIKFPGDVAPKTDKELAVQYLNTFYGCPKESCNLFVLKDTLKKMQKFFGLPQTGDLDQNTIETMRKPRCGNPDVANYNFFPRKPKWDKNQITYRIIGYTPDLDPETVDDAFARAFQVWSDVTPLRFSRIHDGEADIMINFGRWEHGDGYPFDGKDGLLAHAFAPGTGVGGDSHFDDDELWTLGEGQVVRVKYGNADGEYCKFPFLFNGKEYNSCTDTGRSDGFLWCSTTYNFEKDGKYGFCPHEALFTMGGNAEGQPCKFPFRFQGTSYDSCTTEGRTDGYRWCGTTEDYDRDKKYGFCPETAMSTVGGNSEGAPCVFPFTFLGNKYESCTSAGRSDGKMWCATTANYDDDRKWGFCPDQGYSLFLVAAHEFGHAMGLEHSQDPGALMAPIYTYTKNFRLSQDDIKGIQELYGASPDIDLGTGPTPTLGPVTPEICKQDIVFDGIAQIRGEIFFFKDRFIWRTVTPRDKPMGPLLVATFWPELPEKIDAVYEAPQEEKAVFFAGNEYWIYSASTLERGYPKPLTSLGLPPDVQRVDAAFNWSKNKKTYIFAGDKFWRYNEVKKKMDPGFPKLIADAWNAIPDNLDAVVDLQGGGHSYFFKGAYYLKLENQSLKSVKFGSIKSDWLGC
Chain of UniProt P41586 (whole entry, looked up): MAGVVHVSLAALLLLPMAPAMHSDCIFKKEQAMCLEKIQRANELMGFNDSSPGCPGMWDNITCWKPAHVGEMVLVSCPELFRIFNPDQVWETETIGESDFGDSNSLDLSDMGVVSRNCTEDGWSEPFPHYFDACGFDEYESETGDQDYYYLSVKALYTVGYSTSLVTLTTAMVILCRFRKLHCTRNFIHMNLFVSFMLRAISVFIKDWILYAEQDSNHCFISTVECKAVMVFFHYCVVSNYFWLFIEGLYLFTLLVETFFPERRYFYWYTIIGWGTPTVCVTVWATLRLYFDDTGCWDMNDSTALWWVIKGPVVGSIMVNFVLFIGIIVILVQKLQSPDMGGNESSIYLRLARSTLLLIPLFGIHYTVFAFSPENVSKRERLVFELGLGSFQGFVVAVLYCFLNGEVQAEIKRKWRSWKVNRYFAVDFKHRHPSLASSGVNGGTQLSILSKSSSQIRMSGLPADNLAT
Chain of UniProt Q01959 (whole entry, looked up): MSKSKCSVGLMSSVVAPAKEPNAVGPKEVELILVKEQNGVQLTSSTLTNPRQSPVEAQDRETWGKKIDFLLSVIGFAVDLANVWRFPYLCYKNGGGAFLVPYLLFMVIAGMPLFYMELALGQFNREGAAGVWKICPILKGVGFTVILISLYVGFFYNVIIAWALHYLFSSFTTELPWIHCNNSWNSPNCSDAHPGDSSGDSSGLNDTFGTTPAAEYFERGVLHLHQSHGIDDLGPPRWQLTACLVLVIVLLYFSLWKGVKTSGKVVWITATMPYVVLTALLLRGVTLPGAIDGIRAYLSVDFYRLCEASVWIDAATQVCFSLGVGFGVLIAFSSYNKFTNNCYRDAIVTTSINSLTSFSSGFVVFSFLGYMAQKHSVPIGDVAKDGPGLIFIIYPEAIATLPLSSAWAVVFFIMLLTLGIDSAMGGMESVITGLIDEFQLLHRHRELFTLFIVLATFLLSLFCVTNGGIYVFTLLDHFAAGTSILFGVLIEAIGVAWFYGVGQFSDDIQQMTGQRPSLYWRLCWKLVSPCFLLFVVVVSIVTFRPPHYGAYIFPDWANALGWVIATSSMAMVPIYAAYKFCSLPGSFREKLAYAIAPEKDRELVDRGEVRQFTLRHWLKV
Chain of UniProt P47870 (whole entry, looked up): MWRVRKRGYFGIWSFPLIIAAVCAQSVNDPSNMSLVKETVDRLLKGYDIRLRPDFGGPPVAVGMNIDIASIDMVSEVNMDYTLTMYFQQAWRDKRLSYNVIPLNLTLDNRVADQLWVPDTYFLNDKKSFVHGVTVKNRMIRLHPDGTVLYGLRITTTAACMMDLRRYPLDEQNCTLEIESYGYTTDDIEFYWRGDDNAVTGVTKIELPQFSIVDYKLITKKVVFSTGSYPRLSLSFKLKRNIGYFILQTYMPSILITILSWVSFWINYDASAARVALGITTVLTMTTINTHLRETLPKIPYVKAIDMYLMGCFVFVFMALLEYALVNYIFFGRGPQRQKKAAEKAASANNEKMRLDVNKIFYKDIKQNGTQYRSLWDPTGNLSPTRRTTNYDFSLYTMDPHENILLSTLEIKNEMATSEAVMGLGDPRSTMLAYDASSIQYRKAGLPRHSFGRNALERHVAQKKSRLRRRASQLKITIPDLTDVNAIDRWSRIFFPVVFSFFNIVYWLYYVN
Chain of UniProt P18507 (whole entry, looked up): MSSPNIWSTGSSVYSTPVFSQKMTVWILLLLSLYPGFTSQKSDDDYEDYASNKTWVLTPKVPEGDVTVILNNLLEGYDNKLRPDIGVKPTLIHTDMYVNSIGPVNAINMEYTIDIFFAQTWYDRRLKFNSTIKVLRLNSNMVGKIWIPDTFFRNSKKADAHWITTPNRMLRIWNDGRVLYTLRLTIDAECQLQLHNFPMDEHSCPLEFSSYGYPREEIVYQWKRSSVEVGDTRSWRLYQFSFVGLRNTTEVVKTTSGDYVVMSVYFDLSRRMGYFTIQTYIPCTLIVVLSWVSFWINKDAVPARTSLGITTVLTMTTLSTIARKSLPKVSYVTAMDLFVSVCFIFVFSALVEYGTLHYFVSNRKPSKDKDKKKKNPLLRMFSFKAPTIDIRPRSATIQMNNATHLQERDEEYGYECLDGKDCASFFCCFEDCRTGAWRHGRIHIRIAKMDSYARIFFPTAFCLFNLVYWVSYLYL
Chain of UniProt P34897 (whole entry, unmodified, looked up): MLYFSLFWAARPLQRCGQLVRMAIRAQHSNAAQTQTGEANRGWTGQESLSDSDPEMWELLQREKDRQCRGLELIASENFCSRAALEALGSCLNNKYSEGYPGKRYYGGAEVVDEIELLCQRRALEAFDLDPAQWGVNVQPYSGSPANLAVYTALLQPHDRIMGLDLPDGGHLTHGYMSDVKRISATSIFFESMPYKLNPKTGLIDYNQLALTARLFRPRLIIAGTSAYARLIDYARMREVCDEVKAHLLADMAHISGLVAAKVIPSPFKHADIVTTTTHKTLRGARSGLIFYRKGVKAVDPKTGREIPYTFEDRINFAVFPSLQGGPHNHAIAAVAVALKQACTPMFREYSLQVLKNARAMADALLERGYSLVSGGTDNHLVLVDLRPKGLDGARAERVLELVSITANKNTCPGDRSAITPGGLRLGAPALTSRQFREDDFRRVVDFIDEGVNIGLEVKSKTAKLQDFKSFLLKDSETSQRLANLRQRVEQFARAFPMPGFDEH
Chain of UniProt P14867 (whole entry, looked up): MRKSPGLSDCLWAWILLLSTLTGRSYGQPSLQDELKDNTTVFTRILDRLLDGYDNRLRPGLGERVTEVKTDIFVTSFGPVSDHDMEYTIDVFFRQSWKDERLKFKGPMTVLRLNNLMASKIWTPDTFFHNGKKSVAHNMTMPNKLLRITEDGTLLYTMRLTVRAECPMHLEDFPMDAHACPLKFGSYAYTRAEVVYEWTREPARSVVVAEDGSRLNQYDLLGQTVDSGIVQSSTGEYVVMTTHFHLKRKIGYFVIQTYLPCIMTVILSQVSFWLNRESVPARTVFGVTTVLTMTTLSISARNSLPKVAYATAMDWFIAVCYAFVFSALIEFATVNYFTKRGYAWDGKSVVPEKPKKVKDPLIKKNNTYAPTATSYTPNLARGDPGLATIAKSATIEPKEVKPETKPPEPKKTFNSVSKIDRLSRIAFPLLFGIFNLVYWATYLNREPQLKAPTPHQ

`dynorphin` has a ΔF/F0 of -0.114 and -0.293 and 0.183 and 0.574 and -2.04 and 1.69 and 0.0195 and -2.12 (HCRTR2 (Homo sapiens, UniProt O43614, del254-292/I293E/K294R/L160H/M161K/Q254E); sensor fluorescence, fluorescence imaging; HEK293T; concentration not given, unit not given; relative to: baseline).
For `Polymyxin B`, the survival was 100% (mouse; intraperitoneal, 20 mg/kg single dose, day 6).
For `tetrahydrofolate`, the Km was 47 µM (SHMT2 (Homo sapiens, UniProt P34897, Y105F); substrate, MTHFD2-coupled NADH fluorescence; Y105F mutant, added: serine 200 mM).
For `(−)-cocaine`, “mean open time” read 263 ms (Sodium channel protein type 4 alpha, BTX-activated (Oryctolagus cuniculus, UniProt G1SLL9); channel gating).
The efficacy of `evodiamine` is reported as -66.6 ± 19.9% (Cholinesterase (BCHE, Homo sapiens, UniProt P06276); enzyme activity, fluorescence).
For `ibogaine`, “maximal apparent inhibition rate” read 5.99 s⁻¹ (SLC6A3 (Homo sapiens, UniProt Q01959); transporter current, inhibitor, electrophysiology; added: dopamine 30 µM).
The kon of `nonaarginine` is reported as 2.85e+07 ± 3e+06 M⁻¹ s⁻¹ (PorA peptide pore; peptide binding, planar bilayer single-channel recording; 0.5 µM, pH 7.4, -25 mV, cis side, 150 mM KCl).
`insulin human` gave a fold change of 1.17 (item: SOD2 mRNA; EcoHIV-infected mouse, brain; i.p., dose not given; relative to: PBS).
With `Met-enkephalin` the Km was 95 µM (rat neuron-specific aminopeptidase (NAP); substrate).
`SFLLRNPNDKYEPF` — result for “recovery time from desensitisation”: ~60 min (BPAEC; calcium response; peptide; 100 µM, added: alpha-thrombin challenge).
`Ac-APPIPPPRRKR-NH2 (N-acetyl, C-amide)`: “C–D stretch frequency” 2226.5 ± 0.1 cm⁻¹ (Tyrosine-protein kinase Fyn, SH3 domain (FYN, Homo sapiens, UniProt P06241); binding, FTIR spectroscopy; peptide; 4 mM, pH 7.0, band A, protein complex).
For `Picrotoxin`, the IC50 was 3.8 µM (GABA-A receptor; alpha-1/beta-2/gamma-2 (Homo sapiens, UniProt P14867+P18507+P47870); receptor activity, antagonist, FLIPR membrane potential; CHO cells).
For `maxadilan`, the Emax was 77 ± 7% (ADCYAP1R1 (Homo sapiens, UniProt P41586); calcium mobilization, agonist, Fluo-8 AM; COS-7; AUC over 2 min).
`mitragynine` gave a Km of 1.68 µM (substrate; human liver S9; 10 min, 1).
For `aspterric acid`, the inhibition was 95.2% (hypocotyl length; Arabidopsis thaliana Col-0 seeds; 12.5 µg/mL, 7 days, dark).
Under “substrate release rate constant”, `PAALVAC (6-FAM-labelled)` is recorded as 0.048 h⁻¹ (MMP2 (Homo sapiens, UniProt P08253); substrate, fluorescence; peptide).
For `glucagon`, the leg extraction was 41% and 40.6% (isotope dilution; human, non-diabetic; baseline, no infusion).
For `cGMP`, the −TΔS was 12 kcal/mol (Potassium/sodium hyperpolarization-activated cyclic nucleotide-gated channel 2, C-terminal region (Hcn2, Mus musculus, UniProt O88703, T592A); binding, ITC).
The decreased neutrophil of `heparin sodium` is reported as 75% (healthy Chinese adult volunteers; continuous intravenous infusion, 8 IU/kg/h, 5 days).
